# Published values gathered from unrelated publications.
# Each numbered part is a random draw from the data of one study; scales do not carry over between parts.
# Sequence of UniProt Q14653 (whole entry, unmodified, looked up): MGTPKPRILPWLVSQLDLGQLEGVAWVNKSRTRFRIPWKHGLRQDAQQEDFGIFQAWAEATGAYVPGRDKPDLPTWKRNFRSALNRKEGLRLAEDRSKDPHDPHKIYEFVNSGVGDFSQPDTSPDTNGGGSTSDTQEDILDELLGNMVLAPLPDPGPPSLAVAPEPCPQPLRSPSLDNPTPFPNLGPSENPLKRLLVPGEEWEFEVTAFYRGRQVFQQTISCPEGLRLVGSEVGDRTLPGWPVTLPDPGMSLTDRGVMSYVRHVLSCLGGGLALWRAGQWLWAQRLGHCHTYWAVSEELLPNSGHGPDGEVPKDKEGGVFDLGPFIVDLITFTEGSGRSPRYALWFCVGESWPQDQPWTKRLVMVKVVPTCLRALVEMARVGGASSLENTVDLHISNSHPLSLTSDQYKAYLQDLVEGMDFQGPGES

# Block 1 — technique: RNA Bind-n-Seq; molecule type: RNA; matrix: in vitro; concentration: 365 nM; relative to: no-protein control; reading: higher = stronger binding
# Target: RNA binding protein fox-1 homolog 2, RRM domain, GST-SBP tag (RBFOX2, Homo sapiens, UniProt O43251-10, residues 100-194)
# Notes: natural RNA segment, single round, ends assumed
# Target sequence (chain): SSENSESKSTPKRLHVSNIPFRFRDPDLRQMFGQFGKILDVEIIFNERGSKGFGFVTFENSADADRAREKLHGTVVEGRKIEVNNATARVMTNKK
Oligonucleotide,RBNS enrichment (R)
GGGAGUUCUACAGUCCGACGAUCUGAUUCUGUACUCUUAACCUUUGGCUACUUCACAGACUCCAUUGGCAACACUGUUAUUGAAAAUCAUGUAAGAUUAAAGAGAGGCAUUUUCGUUUCUAUACAACUUCAUUUGGAAUUCUCGGGUGCCAA,0.318
GGGAGUUCUACAGUCCGACGAUCUCAUCAGUGUUGAAACAUUCACCAUGUGCUGGACGUAGGUUUUCAAUAAACACAGAUUGGUACCACCUAACACAAGGCUGUGUGAGUCUGUAGUAUGACCAUUACGCUGAUGGAAUUCUCGGGUGCCAA,0.281
GGGAGUUCUACAGUCCGACGAUCGUCCUUCCCCAAAUGGGACCUGAGGAAAUAGCAGGUGUCCAGCUGAUGUGUUGGGCCUUUUCUAGGAAAGGGACCAAGCCCCUUCAAGUGGGGAGGCCCAGAGUUACCUGUGGAAUUCUCGGGUGCCAA,0.336
GGGAGUUCUACAGUCCGACGAUCUGAGAGGCCACGCAGCUCCCGACCCUCCGGCCUCCUCUCGCACAUGGAAGGUAUCAGCACUUUGAGAAACAGAGGUGGGGGAACCGGGGGCCCCCCACGCCGAGGUUCCUUGGAAUUCUCGGGUGCCAA,0.264

# Mixed results
# IRF7 S101K/S471D/S472D/S475D/S476D/S477D/S483D/S484D/S487D full length, phosphomimetic: Interferon regulatory factor 7, full length, phosphomimetic (IRF7, Homo sapiens, UniProt Q92985, residues 1-503, S101K/S471D/S472D/S475D/S476D/S477D/S483D/S484D/S487D)
# Sequence of UniProt Q92985 (whole entry, unmodified, looked up): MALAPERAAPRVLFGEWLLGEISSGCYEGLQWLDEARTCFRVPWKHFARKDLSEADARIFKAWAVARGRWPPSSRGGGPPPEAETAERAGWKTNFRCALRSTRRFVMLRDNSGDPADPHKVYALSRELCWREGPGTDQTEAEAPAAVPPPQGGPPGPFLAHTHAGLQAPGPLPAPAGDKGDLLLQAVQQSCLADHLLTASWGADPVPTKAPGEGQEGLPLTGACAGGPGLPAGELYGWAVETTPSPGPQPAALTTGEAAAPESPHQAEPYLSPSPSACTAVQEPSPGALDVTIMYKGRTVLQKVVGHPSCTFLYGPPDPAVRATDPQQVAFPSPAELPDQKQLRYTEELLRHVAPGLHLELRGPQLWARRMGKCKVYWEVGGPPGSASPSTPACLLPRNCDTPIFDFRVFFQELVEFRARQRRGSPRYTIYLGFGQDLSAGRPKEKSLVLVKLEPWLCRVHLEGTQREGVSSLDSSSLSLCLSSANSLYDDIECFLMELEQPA
Substance,target,test,test system,conditions,scale,measurement,value
GCCTAGCACGACGGACTGGTGACTGGGGACGTGCTAGTCTTGATTCGCTTGACGCTGCTG,"Interferon regulatory factor 3, full length, phosphomimetic (IRF3, Homo sapiens, UniProt Q14653, residues 1-427, S386D/S396D/S398D/S402D/T404D/S405D)",protein-binding microarray,"double-stranded DNA, one strand shown, in vitro","2540 nM top, 60-bp whole probe, with: salmon DNA 0.4 mg/ml","relative to: random background probes, higher = stronger binding",fitted relative affinity,-0.864 z-score
"PhoQ, residues 284 288 289 292 302 303 TTCLQL","PhoP, residues 12 14 15 18 19 FWNTL (Escherichia coli, UniProt P23836)","Sort-seq, item: YFP reporter",E. coli,"PhoQ-PhoP variant library, with: 10 µM Mg2+","relative to: high Mg2+ state, higher = stronger signaling",fold induction,12.3
ACAATACC,"Histone acetyltransferase KAT6A, winged helix 2, GST fusion (KAT6A, Homo sapiens, UniProt Q92794, residues 85-181)",protein binding microarray,"double-stranded DNA, one strand shown, in vitro","not given, 8-mer, flanks averaged, mean of 2 arrays, mostly near background","relative to: not given, higher = stronger binding",E-score,-0.0908
GCCTAGCACTTAGGTCTAGGTTTCGGTTAGTGCTAGGTCTTGATTCGCTTGACGCTGCTG,"IRF7 S101K/S471D/S472D/S475D/S476D/S477D/S483D/S484D/S487D full length, phosphomimetic",protein-binding microarray,"double-stranded DNA, one strand shown, in vitro","250 nM, 60-bp whole probe, with: salmon DNA 0.4 mg/ml","relative to: random background probes, higher = stronger binding",log fluorescence,7.56 z-score
AACAGCAG,"Histone acetyltransferase KAT6A, both winged helices, GST fusion (KAT6A, Homo sapiens, UniProt Q92794, residues 1-181)",protein binding microarray,"double-stranded DNA, one strand shown, in vitro","not given, 8-mer, flanks averaged, mean of 2 arrays, mostly near background","relative to: not given, higher = stronger binding",E-score,-0.105
GCCTAGCACGACGATTCCGGGACTGGAGACGTGCTAGTCTTGATTCGCTTGACGCTGCTG,"IRF7 S101K/S471D/S472D/S475D/S476D/S477D/S483D/S484D/S487D full length, phosphomimetic",protein-binding microarray,"double-stranded DNA, one strand shown, in vitro","250 nM, 60-bp whole probe, with: salmon DNA 0.4 mg/ml","relative to: random background probes, higher = stronger binding",log fluorescence,-0.324 z-score
